# Measurements gathered from unrelated publications.
# Protocols differ between the studies behind these lines. Values joined by “and” are separate records of one study, mostly repeats; a detail may differ. Numbers after ± are the reported error.
SMILES,test,system,setting,how to read,endpoint,value
CCCCN1C(=O)c2cccc3c(NCCCN4CCOCC4)ccc(c23)C1=O,,DMF,,,fluorescence quantum yield,0.34
CCn1c(=O)c(-c2cc(NC(=O)Nc3ccccc3)c(F)cc2Br)cc2cnc(N)cc21,,human plasma,"150 ng/mL, 1 weeks, 4 °C, low QC",,mid-term stability accuracy,-1.73%
O=C(CCCCCCCCCCCCCCCCC(=O)Oc1c2n(cc(C(=O)NCc3c(F)cc(F)cc3F)c1=O)CC1OC3CCC(C3)N1C2=O)Oc1c2n(cc(C(=O)NCc3c(F)cc(F)cc3F)c1=O)CC1OC3CCC(C3)N1C2=O (stereo not shown),,dog plasma,"1 µM, 24 h, 1% methanol",,prodrug hydrolysed,45%
C=CC(=O)Nc1cc(Nc2nccc(-c3cn(C)c4ccccc34)n2)c(OC)cc1N(C)CCNC,storage stability,human dried blood spot,"30 d, on ice, LLOQ level",,recovery,50.6%
Cc1ccc(CN2C(=O)/C(=N\c3ccc(Cl)cc3Br)c3ccccc32)cc1,,"mouse, blood",200 mg/kg,,MCHC,329 ± 13.4 g/L
COC1C=COC2(C)Oc3c(C)c(O)c4c(c3C2=O)C2=NC3(CCN(CC(C)C)CC3)NC2=C(NC(=O)C(C)=CC=CC(C)C(O)C(C)C(O)C(C)C(OC(=O)c2cccnc2)C1C)C4=O (stereo not shown),,"CD-1 mouse female, plasma","intravenous, 5 mg/kg",,elimination half-life,6.7 h
OCC1OC(n2cnc3c(NCc4ccc(Br)s4)ncnc32)C(O)C1O (stereo not shown),,"Sprague-Dawley rat, both sexes","oral, 100 mg/kg, single dose",,body temperature decrease,1 to 2 °C
COC(=O)[C@@]1(C(C)C)C=C(C(=O)Nc2cccc(C(=O)Nc3ccc(Nc4nccc(-c5cccnc5)n4)c(C)c3)c2)C(=O)CC1,,"rat, plasma","10 µM, 15 min",,compound remaining,100%
C/C(N)=N/C(=N\S(=O)(=O)c1ccc(C(F)(F)F)cc1)N1C[C@H](c2ccccc2)C(c2ccc(Cl)cc2)=N1,,"C57BL/6 mouse, liver","intravenous, 10 mg/kg, observed value",,AUC(0-inf),110 µg·h/mL
COc1ccc([C@@H]2CC(=O)c3c(O)cc(O[C@@H]4O[C@H](CO)[C@@H](O)[C@H](O)[C@H]4O[C@@H]4O[C@@H](C)[C@H](O)[C@@H](O)[C@H]4O)cc3O2)cc1O,,"Sprague-Dawley rat, male, obese, plasma","intravenous, 4 mg/kg",,AUC(0-t),0.0397 ± 0.0052 µg·h/mL
CN1CCN(C(=S)N/N=C/c2ccccc2O)CC1,,plasma,"intravenous, 30 mg/kg",,MRT(0-inf),0.53 ± 0.24 h
CC[C@H](C)[C@@H]1NC(=O)[C@H](Cc2ccc(O)cc2)NC(=O)CCCSC[C@@H](C(=O)N(CC(=O)N[C@@H](CC(C)C)C(=O)NCC(N)=O)Cc2ccc(F)cc2)NC(=O)[C@H](CC(N)=O)NC(=O)[C@H](CCC(N)=O)NC1=O,,human,"intranasal and intravenous, 400 µg intranasal and 20 µg intravenous",,severe adverse events,0%
COCC1CN(C2CCN(c3cc(OC)c(Nc4ncc(Br)c(Nc5ccc6c(c5P(C)(C)=O)OCCO6)n4)cc3C)CC2)C1,first-in-human trial,human,"oral, 30 mg once daily",treatment-related leading to permanent discontinuation,adverse events,0%
OC1(C(F)(F)F)CCN(c2nc(Nc3ccnc(C(F)(F)F)c3)nc(-c3cccc(C(F)(F)F)n3)n2)C1 (stereo not shown),,"Sprague-Dawley rat, both sexes, plasma","oral gavage, 5 mg/kg, day 14",,AUC(0-t),22.5 ± 7.26 µg·h/mL
COc1cccc(OC)c1-c1cc(C(=O)NC2(C(=O)O)C3CC4CC(C3)CC2C4)nn1-c1ccc(C(=O)N(C)CCCN(C)C(=O)[C@H](CCCCNC(=O)[C@H](CC(C)C)NC(=O)C2OC2C(=O)O)NC(=O)CN2CCN(CC(=O)[O-])CCN(CC(=O)[O-])CCN(CC(=O)[O-])CC2)cc1C(C)C.[177Lu+3] (mixture of isomers),,"mouse, HT-29 xenograft","4 h post injection, biodistribution",reference: tumour over muscle uptake,tumour-to-muscle ratio,13.2
O=C([O-])CN1CCN(CC(=O)[O-])CCN(CC(CCCc2ccccc2[N+](=O)[O-])N(CC(=O)[O-])CC(=O)[O-])CC1.[177Lu+3] (stereo not shown),HPLC,human serum,"279 h, pH 7, 37 °C",,intact radiolabelled complex,100%
OB(O)c1sccc1/C=N/OCc1ccccc1,chemical stability,PBS,80 µM,,half-life,~2 h
N#C[C@@H]1CC(F)(F)CN1C(=O)CNC(=O)c1ccnc2c(NC(=O)[C@@H](N)CCCCNC(=O)CCOCCOCCOCCOCCOCCOCCNC(=O)CN3CCN(CC(=O)[O-])CCN(CC(=O)[O-])CCN(CC(=O)[O-])CC3)cccc12.[177Lu+3],,"mouse, U-87 MG tumour xenograft, salivary gland",48 h,,tissue uptake,0.08 ± 0.02 %ID/g
N#C[C@@H]1CCCN1C(=O)CNC(=O)c1ccnc2ccc(OCCCN3CCN(C(=O)CCc4ccc5c(c4)CN4CCN6CC(=O)[O][68Ga-]([O]C(=O)C4)([O]5)[O]c4ccc(CCC(=O)N5CCN(CCCOc7ccc8nccc(C(=O)NCC(=O)N9CCC[C@H]9C#N)c8c7)CC5)cc4C6)CC3)cc12,,"BALB/c nude mice, U-87 MG tumour",120 min post-injection,reference: tumour over blood,tumour-to-organ ratio,10.3 ± 2.94
CN(Cc1ccccc1)C(=O)CN1CCN(CC(=O)[O-])CCN(CC(=O)N(C)Cc2ccccc2)CC1.[18F-].[Sc+3],,"mouse, stomach","intravenous, 1 h",,tracer uptake,0.06 %ID/g
C[C@]12C[C@H](c3ccc(S(C)(=O)=O)cc3)C3=C4CCC(=O)C=C4CC[C@H]3[C@@H]1CC[C@@]2(O)C(F)(F)C(F)(F)F,,"human, plasma","oral, 5 mg multiple doses, day 28",,AUC(0-24 h),0.413 µg·h/mL
O=C(Nc1cnccc1-c1ccc([18F])nc1)c1ccnc(NC(=O)C2CC2)c1,ex vivo gamma counting,"FVB/NJ mice, both sexes, blood","intravenous, 120 min, mean, P-gp inhibitor pretreatment, with: tariquidar 15 mg/kg iv",,SUV,0.184
CN([O-])C(=O)CN1CCN(CC(=O)N(C)[O-])CCN(CC(=O)N(C)[O-])CC1.[89Zr+4],radio-TLC,human serum,"7 days, run 3",,intact complex,90.8%
O=C([O-])CN1CCN(CC(=O)[O-])CCN(Cc2cccc(C(=O)[O-])n2)CC1.[177Lu+3],,"mouse, brain","intravenous, 1 h",,tracer uptake,0.04 %ID/g
CCc1cnc(NC(=O)c2cc(S(=O)(=O)N3CCOCC3)ccc2N(C)C2CCCC2)s1,,"mouse, blood","10 mg/kg, 3 doses",,Lymphocytes differential count,66.7%
CC(C)(O)c1ncc([S@](N)(=O)=NC(=O)Nc2c3c(cc4c2CCC4)CCC3)s1,measured: psychiatric disorders,healthy human,"oral, 3 mg, CS formulation",,subjects with TEAEs,17%
O=C(O)c1cccc(CN2Cc3cccc(n3)CN(Cc3cccc(C(=O)O)n3)Cc3cccc(n3)C2)n1,differential pulse voltammetry,,,reference: Ag/AgCl,Mn(II)/Mn(III) half-wave potential,0.904 V and 0.648 V
O=C(Nc1cnccc1-c1ccc([18F])cc1)c1ccnc(NC(=O)C2CC2)c1,ex vivo gamma counting,"GSK-3β transgenic mice, late-stage, bone","intravenous, 1.26 MBq/animal, 120 min, mean, no P-gp inhibitor",,SUV,0.69
CCC1CNC(CC)CN(C(C(=O)[O-])c2ccc(C(=O)[O-])cc2)C(CC)CN(CC(=O)[O-])C(CC)CN1.[Mn+2] (stereo not shown),ICP-MS,"BALB/c mouse, intestine","intravenous, 0.05 mmol/kg, 1440 min, without anaesthesia",,Mn content,9.17 ± 2.62 µg/g
CN(Cc1ccccc1)C(=O)CN1CCN(CC(=O)[O-])CCN(CC(=O)[O-])CC1.[18F-].[Sc+3],,"mouse, blood","intravenous, 1 h",,tracer uptake,0.34 %ID/g
Cc1cc(Cl)cc(S(C)(=O)=NC#N)c1NC(=O)c1cc(Br)nn1-c1ncccc1Cl (stereo not shown),potentiometric,,,,logP,4.01
CN(Cc1ccccc1)C(=O)CN1CCN(CC(=O)N(C)Cc2ccccc2)CCN(Cc2cccc(C(=O)[O-])n2)CC1.[44Sc+3],,"BALB/c mouse, urine","intravenous, 1 h",,uptake,561 ± 317 %ID/g
COc1cccc(OC)c1-c1cc(C(=O)NC2(C(=O)O)C3CC4CC(C3)CC2C4)nn1-c1ccc(C(=O)N(C)CCOCCOCCN(C)C(=O)[C@H](CCCCNC(=O)[C@H](CC(C)C)NC(=O)C2OC2C(=O)O)NC(=O)CN2CCN(CC(=O)[O-])CCN(CC(=O)[O-])CCN(CC(=O)[O-])CC2)cc1C(C)C.[177Lu+3] (mixture of isomers),,"mouse, HT-29 xenograft","72 h post injection, biodistribution",reference: tumour over muscle uptake,tumour-to-muscle ratio,12.8
CN([O-])C(=O)CN1CCN(CC(=O)N(C)[O-])CCN(Cc2ccccn2)CC1.[89Zr+4],radio-TLC,human serum,"3 days, run 1",,intact complex,92.7%
CC(C(=O)O)n1nc(Cn2cc3cc(OCC[18F])c(Cl)cc3n2)c2ccccc2c1=O (racemic),,"rat, lung",2 h,,tracer uptake,0.25 %ID/g
CN(Cc1ccccc1)C(=O)CN1CCN(CC(=O)[O-])CCN(Cc2cccc(C(=O)[O-])n2)CC1.[18F-].[Sc+3],,"mouse, heart","intravenous, 1 h",,tracer uptake,0.1 %ID/g
C=C(NC(=O)c1csc(-c2nc3c(cc2O)-c2nc(cs2)C(=O)NC(C(C)O)C(=O)NC(=C(C)OC)c2nc(cs2)C(=O)NC2c4nc(cs4)C(=O)NC(COC(=O)c4c5c6c(cccc6n4O)COC(=O)C(OC4CC(C)(O)C(N(C)C)C(C)O4)C2OC5)c2nc-3cs2)n1)C(N)=O (stereo not shown),,"ICR mice, Streptococcus pneumoniae ATCC 49169 infected, immunocompromised, blood","intravenous, 32 mg/kg/day twice daily",,Tmax,4.8 min
CC(=O)N([O-])CCCCCNC(=O)CCC(=O)N([O-])CCCCCNC(=O)CCC(=O)N([O-])CCCCCN.[89Zr+4],radio-TLC,aqueous buffer,"5 d, pH 5, 37 °C, 89Zr-labelled complex, with: DTPA 100-fold excess",,intact complex,95.6 ± 1.3%
Cc1nn(-c2nc3c(F)cc(F)cc3s2)c(O)c1C(c1ccc(C(F)(F)F)cc1)c1c(C)nn(-c2nc3c(F)cc(F)cc3s2)c1O,,"ICR mouse, plasma","ip, 10 mg/kg",,AUC(0-inf) per dose,3030 kg·ng·h/mL/mg and 2760 kg·ng·h/mL/mg and 3180 kg·ng·h/mL/mg
CCC(C(=O)Nc1ccc(C(N)=O)c(F)c1)n1cc(OC)c(-c2cc(Cl)ccc2-n2cc(C(F)(F)F)nn2)cc1=O (stereo not shown),,healthy male humans,"50 mg, required by protocol, with: omeprazole",,procedure-related adverse events,7.1%

# A few entries again:
SMILES,test,system,setting,how to read,endpoint,value
O=C(Nc1cnccc1-c1ccc([18F])nc1)c1ccnc(NC(=O)C2CC2)c1,ex vivo gamma counting,"FVB/NJ mice, both sexes, blood","intravenous, 120 min, mean, P-gp inhibitor pretreatment, with: tariquidar 15 mg/kg iv",,SUV,0.184
Cc1ccc(CN2C(=O)/C(=N\c3ccc(Cl)cc3Br)c3ccccc32)cc1,,"mouse, blood",200 mg/kg,,MCHC,329 ± 13.4 g/L
CN([O-])C(=O)CN1CCN(CC(=O)N(C)[O-])CCN(Cc2ccccn2)CC1.[89Zr+4],radio-TLC,human serum,"3 days, run 1",,intact complex,92.7%
N#C[C@@H]1CC(F)(F)CN1C(=O)CNC(=O)c1ccnc2c(NC(=O)[C@@H](N)CCCCNC(=O)CCOCCOCCOCCOCCOCCOCCNC(=O)CN3CCN(CC(=O)[O-])CCN(CC(=O)[O-])CCN(CC(=O)[O-])CC3)cccc12.[177Lu+3],,"mouse, U-87 MG tumour xenograft, salivary gland",48 h,,tissue uptake,0.08 ± 0.02 %ID/g
O=C([O-])CN1CCN(CC(=O)[O-])CCN(Cc2cccc(C(=O)[O-])n2)CC1.[177Lu+3],,"mouse, brain","intravenous, 1 h",,tracer uptake,0.04 %ID/g
